Measured values from different studies.
Each numbered part is a random draw from the data of one study; scales do not carry over between parts.

Sample 1
Target: Fragile X messenger ribonucleoprotein 1, C-terminal low-complexity region (Fmr1, Mus musculus, UniProt P35922)
Method: RNA Bind-n-Seq
Molecule type: RNA
Medium: in vitro
Concentration: 200 nM
Setting: whole 134-nt RNA, ends assumed
Together with: 150 mM KCl
Relative to: input library
Direction: higher = stronger binding
Oligonucleotide	log2 enrichment
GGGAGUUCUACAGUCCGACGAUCUGUGCGGGAGACAGGCGCCAACGGCACCUCUUUCAGUGUCCGCAAGACAGCCUACUGCGACAUCCACACGCCUCCAGGUUCAGCACGCCGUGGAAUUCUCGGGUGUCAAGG	-0.0253
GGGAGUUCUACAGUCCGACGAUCCCUGUGCUACACAUCGUAUGUACCGAAUCGGGGUUUUUUUGGGGAAAAAAAGGGGAGGGGAAAGUAUUAUGUUACGCCGUUCGGAUCUGCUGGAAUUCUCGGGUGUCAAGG	0.157
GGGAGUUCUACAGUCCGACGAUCUGGCCCUGGUGGCAUGCGGGGAGGAAGAGGUGGCCUCAUGGAUCGUGGUGGUCCCGAUGGAAUGUUCAGAGGUGGCCGUGGUGGAGACAGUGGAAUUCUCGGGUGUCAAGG	-0.167
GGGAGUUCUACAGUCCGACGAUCUGGGAGGUGGAUUUUGUUGAUUUUUUUAGCUCAUUUCCAGGGGUGGGAAUUUUUUUUUAAUAUGUGUCAUGAAUAAAGUUGUUUUUGAAAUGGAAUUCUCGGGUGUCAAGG	0.217
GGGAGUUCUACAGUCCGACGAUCAGUCCUGUGCUACACAUCGUAUGUACCGAAUCGGGUUUGGGUUUUUGGGUUUUUGGGAAAGUAUUAUGUUACGCCGUUCGGAUCUGCACUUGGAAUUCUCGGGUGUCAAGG	0.641
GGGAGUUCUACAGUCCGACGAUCCCUCAAGUCCUGUGCUACACAUCGUAUGUACCGAAUCGGGGAGGAGGGGAGGAAAGUAUUAUGUUACGCCGUUCGGAUCUGCACUUCCAGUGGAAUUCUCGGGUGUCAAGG	0.621
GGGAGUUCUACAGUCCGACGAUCUUGCGAAAAGGACCAAUUCCAGUGCCGGAACGAGCGCUGCAUCCCCUCUGUGUGGAGAUGCGACGAGGACGAUGACUGCUUAGACCACAGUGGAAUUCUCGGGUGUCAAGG	-0.507
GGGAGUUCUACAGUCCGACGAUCUGGCCCUGGUGGUAUGCGGGGAGGAAGAGGUGGCCUCAUGGAUCGUGGUGGUCCCGGUGGAAUGUUCAGAGGUGGCCGUGGUGGAGACAGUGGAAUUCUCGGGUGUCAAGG	-0.0115

Sample 2
Target: RNA binding protein fox-1 homolog 2, RRM domain, GST-SBP tag (RBFOX2, Homo sapiens, UniProt O43251-10, residues 100-194)
Method: RNA Bind-n-Seq
Molecule type: RNA
Medium: in vitro
Concentration: 365 nM
Setting: natural RNA segment, single round, ends assumed
Relative to: no-protein control
Direction: higher = stronger binding
Target sequence (chain): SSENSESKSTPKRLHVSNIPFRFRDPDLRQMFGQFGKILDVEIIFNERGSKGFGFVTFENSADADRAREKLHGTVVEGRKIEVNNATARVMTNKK
Oligonucleotide	RBNS enrichment (R)
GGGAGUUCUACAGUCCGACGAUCAAUUAAGCCUCAUUCAGUAGGUCUGCUGUCUGGUGGAACUUACGGAACUCAUUUCCUCCUCUAUCCCCAGCCCUUCUCCUAACUAUGGUGAUAACCAGGGCCAUAGAAGAUGGAAUUCUCGGGUGCCAA	0.213
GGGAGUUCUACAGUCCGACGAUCACAUUUGAUAUUUUUCUUUUUAGUUUCCUUGACUAAAGAGGUACAAUAUACUCUGAUCUACCCCUUAAUAUUGAAUAAAAGAACCAAGAAGUUCUUUCAGAUCACCAAUAUGGAAUUCUCGGGUGCCAA	0.307
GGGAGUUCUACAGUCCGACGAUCUCUGAAUUUUUUUUCUGAAUUUUUUUUUAACAUCUCUUUCUCAUUAGAGAUCUGAAAACUCAUUAGAGAUGUUGAGUCUUAUCAAAUAAAAAGCAUGAGACAUCAUGGCCUGGAAUUCUCGGGUGCCAA	0.653
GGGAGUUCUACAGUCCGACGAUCCCUGUCACCCCACCCCAGGCCACCCUCUCCCAGAGGACGCCAUCUCCCUUACUGUUGCUGGGAGCCUCGCCCUUUGUCCCAACUGGGUAGAGCCCCCAGGUGCUGUUUGCUGGAAUUCUCGGGUGCCAA	0.344
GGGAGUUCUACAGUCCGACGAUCGGUUUGGGUAUUGUGUUUCUGGUCUUUUAACUCAAAAUUAAGGUUUGAGCUUUAAUAGGACUAAAUUAUUCACCUGCCUUGGCCUGUGCCUUUAUUUUAAAUACUGCAAUUGGAAUUCUCGGGUGCCAA	0.524
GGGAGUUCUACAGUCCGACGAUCUCCCUGUAUAUUGCAUGAAUGAGAGAUUUCCCAUAUUUCCAUCAGAGUAAUAAAUAUACUUGCUUUAAUUCUUAAGCAUAAGUAAACAUGAUAUAAAAAUAUAUGCUGAAUGGAAUUCUCGGGUGCCAA	9.53
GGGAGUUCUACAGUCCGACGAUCGUUAGUAAUGUACACCUCUGAUGGGACUCCAAAGGGUGGUCCUUCACUUAGGUGUAGAGCCCCACAGAUGGACAUGUGAGGGAAUUCUUGGGGUGACAUAAACUAGAUAAUGGAAUUCUCGGGUGCCAA	0.735
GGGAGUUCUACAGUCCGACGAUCUUAGGCCCUCAAGACCCUUUUGGGUUUCUGCCCUGCCCACCCUCUGGAGAAGGUGGGCACUGGAUUAGUUAACAGACAACACGUUACUAGCAGUCACUUGAUCUCCGUGGUGGAAUUCUCGGGUGCCAA	0.251

Single results of other studies
Structure (SMILES)	tested on	test	system	conditions	quantity	value
COc1ccc(-c2c(Nc3ccccn3)[nH]c3c(C4=CCCCC4)c(-c4ccccc4)nn3c2=O)cc1	–	–	human, plasma	oral, 200 mg QD	AUC(tau) extrapolated share	0%
C[C@H](CS)C(=O)N1CCC[C@H]1C(=O)O	Sarcocystis neurona	parasite growth	–	10 µM, 96 h, first screen	inhibition	-15.4%

For quick reference, copied from above (sample 2):
Oligonucleotide	RBNS enrichment (R)
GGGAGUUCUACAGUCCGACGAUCACAUUUGAUAUUUUUCUUUUUAGUUUCCUUGACUAAAGAGGUACAAUAUACUCUGAUCUACCCCUUAAUAUUGAAUAAAAGAACCAAGAAGUUCUUUCAGAUCACCAAUAUGGAAUUCUCGGGUGCCAA	0.307
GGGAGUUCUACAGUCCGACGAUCUCUGAAUUUUUUUUCUGAAUUUUUUUUUAACAUCUCUUUCUCAUUAGAGAUCUGAAAACUCAUUAGAGAUGUUGAGUCUUAUCAAAUAAAAAGCAUGAGACAUCAUGGCCUGGAAUUCUCGGGUGCCAA	0.653
